Experimental data pooled from the literature.
Protocols differ between the studies behind these lines.

Cc1c(C(=O)O)ccc2c3n(nc12)[C@@H]1[C@H](C3)N(CC2CC2)[C@@]2(C(=O)Nc3cc(Cl)ccc32)[C@H]1c1cccc(Cl)c1F — adverse event incidence (phase Ia trial, item: Alopecia; cancer patients; oral, dose not given, all patients all grades): 22.2%
CC(C)n1c(Nc2cccnc2)nc2cnc(Nc3ccc(N4CCN(C)CC4)cc3)nc21 — adverse event incidence (item: Hypercalcemia; healthy male subjects; oral, 100 mg, together with: gemfibrozil): 7.1%
Cc1c(Cl)c(C)[n+]([O-])c(Cl)c1-c1noc(-c2cc(O)c(O)c([N+](=O)[O-])c2)n1 — adverse drug reaction incidence (item: Belching; healthy Caucasian subjects; oral, 50 mg, 20 days): 0%
FC(F)(F)c1ccc(CNc2ccc(Cc3c[nH]c4ncc(Cl)cc34)cn2)cn1 — adverse event incidence (item: Constipation; patients with advanced solid tumours; oral, dose not given, grade 3 and 4, possibly related to drug): 0%
NCCONC(=O)[C@@H]1CC[C@@H]2CN1C(=O)N2OS(=O)(=O)O — adverse event incidence (item: leading to temporary interruption; healthy Chinese men; intravenous, 2 g, treatment-related): 0%
CNC(=O)c1ccc(-c2cnc3ncc(Cc4ccc5ncccc5c4)n3n2)cc1F — adverse event incidence (phase 1 clinical trial, item: blood bilirubin increased; dose escalation cohort; oral, dose not given, grade 3 or 4): 11%
O=C1CCc2ccc(OCCCCN3CCN(c4cccc(Cl)c4Cl)CC3)cc2N1 — adverse event incidence (item: Xerostomia; patients, CYP2D6 ultrarapid metabolizers; dose not given, long-acting oral or depot): 0%
Cc1cc(Nc2ccc(S(F)(F)(F)(F)F)cc2)n2nc(C(C)(F)F)nc2n1 — adverse event Thrombocytopenia (Plasmodium vivax malaria patients; oral, 400 mg): 20%

For quick reference, copied from above:
O=C1CCc2ccc(OCCCCN3CCN(c4cccc(Cl)c4Cl)CC3)cc2N1 — adverse event incidence (item: Xerostomia; patients, CYP2D6 ultrarapid metabolizers; dose not given, long-acting oral or depot): 0%
